# Measured values pooled from the literature.
# Compare with care: the assays were run in different laboratories.
# Target: Hormonally up-regulated neu tumor-associated kinase (HUNK, Homo sapiens, UniProt P57058)
SMILES,assay,setting,scale,quantity,result
COc1c(Cl)cccc1Nc1c(-c2ccncc2C#C[C@@]2(C)CCCN2C(=O)/C=C/CN(C)C)[nH]c2c1C(=O)NCC2,"binding, competition with immobilised ligand",3 µM,,remaining binding,91%
CCN1CCN(Cc2ccc(C(=O)Nc3ccc(C)c(NCc4cnc5[nH]ccc5c4OC)c3)cc2C(F)(F)F)CC1,"binding, competition with immobilised ligand",1 µM,,remaining binding,100%
Cc1cnc2nc1Nc1cccc(c1)COC/C=C/COCc1cc(ccc1OCCN1CCOCC1)N2,binding,0.1 µM,,remaining binding,84%
Nc1ncc2c(n1)-c1c([nH]c3ccc(C4=CCOCC4)cc13)CCC2,"binding, competition with immobilised ligand",1 µM,,remaining binding,61%
CNC1C[S+]2CC[S+]3CC[S+](C1)[Ru-4]321([N]=C=S)[n]2c3ccc(OC)cc3c3c4c(c5cc(F)c[n+]1c5c32)C(=O)NC4=O (stereo not drawn),KinomeScan,0.1 µM,relative to: untreated,remaining binding,85%
CNC(=O)C1CCN(c2cc(C)c(F)cc2NC(=O)c2ccc(-c3cc(O)ccc3C)c(C)c2)CC1,"binding, competition with immobilised ligand",1 µM,,remaining binding,80%
CCn1cc(C(=O)O)c(=O)c2c(N)c(F)c(NC3CCCCC3)cc21,kinase activity,"0.1 µM, added: ATP at Km",,inhibition,6.3%
C=CC(=O)N1CCCC(n2c(=O)c3ncccc3n(Cc3ccc(Oc4ccccc4)cc3)c2=O)C1 (stereo not drawn),"cell-free assay, competition with immobilised ligand",1 µM,,remaining binding,100%
C=CC(=O)N1Cc2nc(-c3cc(-c4cc(Cl)cnc4Cl)c(F)cc3F)n(-c3ccncn3)c2C1,"cell-free assay, inhibitor",1 µM,,inhibition,-1%
COc1cc(Nc2nc(C)cc(-c3cnn4nc(OC)ccc34)n2)cc(C(F)(F)F)c1,inhibitor,1 µM,relative to: control,remaining activity,99%
Cc1ccc(-c2c(/C=C(\C#N)C(=O)NC(C)C)n(CCCO)c3ncnc(N)c23)cc1,"cell-free assay, competition with immobilised ligand",1 µM,,remaining binding,100%
C=CC(=O)N1CCc2ccc(-n3c(=O)ccc4cnc5ccc(-c6cnn(C)c6)cc5c43)cc21,KINOMEscan,1 µM,relative to: DMSO control,remaining binding,72%
CN1CCN(Cc2ccc(-c3ccc(CO[C@H]4CCC[C@@H]4NC(=O)c4cc(-c5cnn(C)c5)cnc4N)cc3)cc2)CC1,"enzyme activity, inhibitor",0.1 µM,,inhibition,-19%
COc1cc(Nc2nccc(-c3cnn4nc(OC)ccc34)n2)cc(C(F)(F)F)c1,"binding, competition with immobilised ligand",1 µM,,remaining binding,100%
CC(C)=CC1OC(C)(C)C2C=C3C(=O)C(Cl)=CC(O)C3C3C(O)C4OC4C(=O)C132 (stereo not drawn),"cell-free assay, competition with immobilised ligand",10 µM,,remaining binding,82%
